Assay results from different studies.
Numbered parts are unrelated; each lists some results of a single study.
Sequence of UniProt Q96Q40 (whole entry, looked up): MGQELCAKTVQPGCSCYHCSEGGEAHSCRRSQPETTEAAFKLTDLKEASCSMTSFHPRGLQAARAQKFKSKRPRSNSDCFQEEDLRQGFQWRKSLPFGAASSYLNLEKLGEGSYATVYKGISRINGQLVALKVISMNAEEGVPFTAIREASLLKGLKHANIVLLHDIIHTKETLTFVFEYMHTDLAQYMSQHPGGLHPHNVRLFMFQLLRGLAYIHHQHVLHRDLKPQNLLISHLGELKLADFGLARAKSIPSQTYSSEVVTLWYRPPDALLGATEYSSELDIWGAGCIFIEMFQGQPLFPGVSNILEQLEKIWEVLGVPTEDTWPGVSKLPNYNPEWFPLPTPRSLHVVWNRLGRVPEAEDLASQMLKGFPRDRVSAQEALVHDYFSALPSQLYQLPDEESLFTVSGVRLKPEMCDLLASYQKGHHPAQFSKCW
Sequence of UniProt Q96RR4 (whole entry, looked up): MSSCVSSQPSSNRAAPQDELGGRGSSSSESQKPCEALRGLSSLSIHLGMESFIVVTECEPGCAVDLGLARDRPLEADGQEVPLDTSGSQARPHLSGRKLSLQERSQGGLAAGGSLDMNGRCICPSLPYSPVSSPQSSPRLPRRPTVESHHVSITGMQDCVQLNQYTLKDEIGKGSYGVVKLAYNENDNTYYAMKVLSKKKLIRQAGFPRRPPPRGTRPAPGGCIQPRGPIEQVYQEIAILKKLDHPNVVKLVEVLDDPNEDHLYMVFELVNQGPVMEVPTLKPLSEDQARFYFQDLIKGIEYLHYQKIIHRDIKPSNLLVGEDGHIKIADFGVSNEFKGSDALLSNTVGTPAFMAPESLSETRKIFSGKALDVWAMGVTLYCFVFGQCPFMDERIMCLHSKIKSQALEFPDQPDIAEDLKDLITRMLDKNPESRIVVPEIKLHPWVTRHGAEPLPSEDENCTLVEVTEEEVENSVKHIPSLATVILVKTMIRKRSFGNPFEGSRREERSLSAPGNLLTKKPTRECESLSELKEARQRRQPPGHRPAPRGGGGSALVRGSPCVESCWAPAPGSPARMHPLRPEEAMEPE
Sequence of UniProt P35968 (whole entry, looked up): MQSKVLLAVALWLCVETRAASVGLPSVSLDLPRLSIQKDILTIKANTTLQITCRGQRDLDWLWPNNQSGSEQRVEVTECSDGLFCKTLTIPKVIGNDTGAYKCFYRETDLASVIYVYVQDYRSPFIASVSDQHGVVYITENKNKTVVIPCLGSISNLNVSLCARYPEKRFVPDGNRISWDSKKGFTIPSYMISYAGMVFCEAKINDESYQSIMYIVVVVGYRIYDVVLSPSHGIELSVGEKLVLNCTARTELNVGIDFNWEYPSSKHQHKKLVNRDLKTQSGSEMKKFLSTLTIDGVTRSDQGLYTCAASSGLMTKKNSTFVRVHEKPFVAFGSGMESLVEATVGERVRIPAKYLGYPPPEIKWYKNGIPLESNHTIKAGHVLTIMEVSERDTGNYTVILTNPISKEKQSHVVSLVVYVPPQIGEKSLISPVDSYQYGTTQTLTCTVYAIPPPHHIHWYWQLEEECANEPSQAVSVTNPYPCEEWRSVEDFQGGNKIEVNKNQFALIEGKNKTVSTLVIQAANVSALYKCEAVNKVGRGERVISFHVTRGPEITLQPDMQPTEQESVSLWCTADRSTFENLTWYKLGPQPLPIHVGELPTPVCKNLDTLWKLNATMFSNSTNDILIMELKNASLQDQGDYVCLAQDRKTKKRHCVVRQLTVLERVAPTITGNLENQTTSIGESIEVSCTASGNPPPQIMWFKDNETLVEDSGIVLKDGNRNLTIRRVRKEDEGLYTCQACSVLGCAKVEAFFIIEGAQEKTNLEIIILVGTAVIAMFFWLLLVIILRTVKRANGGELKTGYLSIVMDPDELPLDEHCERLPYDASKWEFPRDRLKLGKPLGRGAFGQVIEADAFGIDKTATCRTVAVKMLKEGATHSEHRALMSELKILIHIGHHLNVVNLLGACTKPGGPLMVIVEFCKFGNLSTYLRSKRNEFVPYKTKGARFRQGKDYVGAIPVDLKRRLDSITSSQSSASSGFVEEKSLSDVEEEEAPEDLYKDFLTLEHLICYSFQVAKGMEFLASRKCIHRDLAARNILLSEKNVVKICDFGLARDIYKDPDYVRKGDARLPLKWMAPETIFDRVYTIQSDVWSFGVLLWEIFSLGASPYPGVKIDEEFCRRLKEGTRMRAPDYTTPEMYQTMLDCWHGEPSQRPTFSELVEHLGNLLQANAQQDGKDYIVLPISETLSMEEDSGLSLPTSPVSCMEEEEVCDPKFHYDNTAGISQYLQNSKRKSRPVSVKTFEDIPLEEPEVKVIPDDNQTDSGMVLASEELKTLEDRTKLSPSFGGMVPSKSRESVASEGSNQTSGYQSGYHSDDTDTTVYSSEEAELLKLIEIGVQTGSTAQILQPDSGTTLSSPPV
Sequence of UniProt P42684 (whole entry, looked up): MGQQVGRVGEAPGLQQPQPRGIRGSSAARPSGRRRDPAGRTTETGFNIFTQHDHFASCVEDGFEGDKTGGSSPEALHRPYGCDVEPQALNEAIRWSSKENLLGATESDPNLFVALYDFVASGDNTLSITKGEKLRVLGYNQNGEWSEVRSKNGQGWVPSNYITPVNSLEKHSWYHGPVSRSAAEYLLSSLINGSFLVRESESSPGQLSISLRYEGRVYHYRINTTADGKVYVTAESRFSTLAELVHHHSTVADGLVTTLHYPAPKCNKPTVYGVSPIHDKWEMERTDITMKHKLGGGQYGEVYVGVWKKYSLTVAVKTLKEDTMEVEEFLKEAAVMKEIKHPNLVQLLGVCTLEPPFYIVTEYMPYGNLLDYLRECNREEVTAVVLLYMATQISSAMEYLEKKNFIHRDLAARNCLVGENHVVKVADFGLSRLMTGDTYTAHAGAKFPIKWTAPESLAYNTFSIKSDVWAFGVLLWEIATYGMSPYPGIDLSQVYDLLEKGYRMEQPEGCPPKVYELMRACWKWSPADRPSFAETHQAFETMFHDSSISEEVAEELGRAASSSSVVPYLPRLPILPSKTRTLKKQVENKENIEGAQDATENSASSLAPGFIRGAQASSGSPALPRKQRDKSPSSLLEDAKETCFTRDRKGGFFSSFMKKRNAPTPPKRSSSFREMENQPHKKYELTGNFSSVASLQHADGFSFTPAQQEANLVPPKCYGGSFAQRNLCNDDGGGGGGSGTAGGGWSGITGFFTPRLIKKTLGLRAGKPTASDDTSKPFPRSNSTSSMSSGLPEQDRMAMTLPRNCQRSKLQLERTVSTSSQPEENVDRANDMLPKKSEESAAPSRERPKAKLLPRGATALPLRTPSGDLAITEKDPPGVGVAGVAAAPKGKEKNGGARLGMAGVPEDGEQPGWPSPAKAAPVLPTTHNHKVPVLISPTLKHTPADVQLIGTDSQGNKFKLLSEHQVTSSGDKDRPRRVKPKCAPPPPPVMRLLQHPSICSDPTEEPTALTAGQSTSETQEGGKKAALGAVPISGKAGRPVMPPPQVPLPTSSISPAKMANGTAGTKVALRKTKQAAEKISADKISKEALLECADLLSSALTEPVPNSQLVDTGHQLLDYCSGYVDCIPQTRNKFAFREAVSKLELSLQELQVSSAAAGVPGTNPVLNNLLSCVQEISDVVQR
Sequence of UniProt O94921 (whole entry, looked up): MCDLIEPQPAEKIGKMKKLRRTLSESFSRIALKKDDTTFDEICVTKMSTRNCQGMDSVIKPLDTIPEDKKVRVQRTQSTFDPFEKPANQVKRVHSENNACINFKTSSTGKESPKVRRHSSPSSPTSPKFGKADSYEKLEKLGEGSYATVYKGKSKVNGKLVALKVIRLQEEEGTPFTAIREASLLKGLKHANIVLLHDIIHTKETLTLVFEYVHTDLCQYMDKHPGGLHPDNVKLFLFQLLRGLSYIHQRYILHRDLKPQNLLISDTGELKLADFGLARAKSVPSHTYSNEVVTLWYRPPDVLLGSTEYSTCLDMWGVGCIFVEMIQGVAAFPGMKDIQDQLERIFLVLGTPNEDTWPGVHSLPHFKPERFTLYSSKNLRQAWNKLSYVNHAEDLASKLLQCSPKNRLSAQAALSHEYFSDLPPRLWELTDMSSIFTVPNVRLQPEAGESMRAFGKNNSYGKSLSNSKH

Set 1 — effect on: cell-free assay; method: competition with immobilised ligand; concentration: 1 µM
SMILES: CC(=O)c1c(NS(C)(=O)=O)c2cc(-c3ccc(Cl)cc3)c(-c3ccc(Cl)cc3Cl)nc2n(C)c1=O
| target | remaining binding |
| --- | --- |
| ALK tyrosine kinase receptor (ALK, Homo sapiens, UniProt Q9UM73, C1156Y) | 100% |
| Tyrosine-protein kinase Blk (BLK, Homo sapiens, UniProt P51451) | 100% |
| Serine/threonine-protein kinase 32A (STK32A, Homo sapiens, UniProt Q8WU08) | 87% |
| Leukocyte tyrosine kinase receptor (LTK, Homo sapiens, UniProt P29376) | 100% |
| Mast/stem cell growth factor receptor Kit (KIT, Homo sapiens, UniProt P10721, D816H) | 70% |
| Epidermal growth factor receptor (EGFR, Homo sapiens, UniProt P00533, A750P/del747-749) | 91% |
| Calcium/calmodulin-dependent protein kinase kinase 2 (CAMKK2, Homo sapiens, UniProt Q96RR4) | 100% |
| MAP kinase-activated protein kinase 2 (MAPKAPK2, Homo sapiens, UniProt P49137) | 80% |
| Cyclin-dependent kinase 15 (CDK15, Homo sapiens, UniProt Q96Q40) | 100% |
| Serine/threonine-protein kinase VRK2 (VRK2, Homo sapiens, UniProt Q86Y07) | 100% |
| Serine/threonine-protein kinase Nek6 (NEK6, Homo sapiens, UniProt Q9HC98) | 100% |
| Dual serine/threonine and tyrosine protein kinase (DSTYK, Homo sapiens, UniProt Q6XUX3) | 100% |
| STE20/SPS1-related proline-alanine-rich protein kinase (STK39, Homo sapiens, UniProt Q9UEW8) | 92% |
| Receptor-type tyrosine-protein kinase FLT3 (FLT3, Homo sapiens, UniProt P36888, ITD) | 98% |
| Cyclin-dependent kinase 14 (CDK14, Homo sapiens, UniProt O94921) | 100% |
| Tyrosine-protein kinase ABL2 (ABL2, Homo sapiens, UniProt P42684) | 100% |
| Serine/threonine-protein kinase PAK 1 (PAK1, Homo sapiens, UniProt Q13153) | 96% |
| Vascular endothelial growth factor receptor 2 (KDR, Homo sapiens, UniProt P35968) | 82% |

Set 2 — effect on: enzyme activity; mode: inhibitor; concentration: 0.5 µM; reference: control
Target: Tyrosine-protein kinase HCK (HCK, Homo sapiens, UniProt P08631)
Sequence of UniProt P08631 (whole entry, looked up): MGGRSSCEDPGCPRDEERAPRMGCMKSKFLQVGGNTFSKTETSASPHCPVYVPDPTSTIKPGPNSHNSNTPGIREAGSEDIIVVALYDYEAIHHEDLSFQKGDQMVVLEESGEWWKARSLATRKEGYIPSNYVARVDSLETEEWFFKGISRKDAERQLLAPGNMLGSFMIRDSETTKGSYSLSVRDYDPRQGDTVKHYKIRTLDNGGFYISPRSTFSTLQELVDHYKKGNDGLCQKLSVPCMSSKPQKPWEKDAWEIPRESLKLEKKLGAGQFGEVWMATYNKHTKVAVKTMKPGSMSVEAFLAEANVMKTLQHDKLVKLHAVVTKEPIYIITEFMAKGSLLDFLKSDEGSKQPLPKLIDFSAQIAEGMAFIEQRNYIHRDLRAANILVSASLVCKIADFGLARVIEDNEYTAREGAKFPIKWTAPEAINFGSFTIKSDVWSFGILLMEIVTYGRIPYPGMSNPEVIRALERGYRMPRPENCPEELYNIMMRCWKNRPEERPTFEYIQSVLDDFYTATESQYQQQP
| Structure (SMILES) | remaining activity [%] |
| --- | --- |
| Cc1cncc2cccc(S(=O)(=O)N3CCCN(C(=O)CN)C[C@@H]3C)c12 | 96.4 |
| NC(=O)c1ccc(N(C(N)=O)c2c(F)cccc2F)nc1-c1ccc(F)cc1F | 89.5 |
| O=C1Cc2c([nH]c3ccc([N+](=O)[O-])cc23)-c2ccccc2N1 | 71.8 |
| CCc1[nH]c(-c2ccc(OC)cc2)nc1-c1ccncc1 | 95.1 |
| CC(C)(C)n1nc(Cc2cccc3ccccc23)c2c(N)ncnc21 | 68.4 |

Set 3 — mode: agonist
Target: Beta-1 adrenergic receptor (ADRB1, Homo sapiens, UniProt P08588)
Sequence of UniProt P08588 (whole entry, looked up): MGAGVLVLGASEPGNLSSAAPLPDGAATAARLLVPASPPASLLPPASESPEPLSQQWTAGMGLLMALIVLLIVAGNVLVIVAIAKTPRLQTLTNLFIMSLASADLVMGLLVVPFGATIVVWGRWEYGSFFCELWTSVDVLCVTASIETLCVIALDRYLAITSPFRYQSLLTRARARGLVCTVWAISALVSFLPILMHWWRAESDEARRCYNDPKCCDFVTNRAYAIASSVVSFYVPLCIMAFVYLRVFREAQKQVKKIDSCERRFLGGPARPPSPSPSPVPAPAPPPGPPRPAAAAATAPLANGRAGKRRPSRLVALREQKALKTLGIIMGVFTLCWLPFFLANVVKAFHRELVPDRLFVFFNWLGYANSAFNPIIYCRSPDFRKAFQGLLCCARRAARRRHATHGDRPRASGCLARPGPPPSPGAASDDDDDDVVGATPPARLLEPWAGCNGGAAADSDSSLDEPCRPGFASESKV
| SMILES | EC50 |
| --- | --- |
| COc1ccccc1N1CCN(C(C)C(N)=O)CC1 (stereo not shown) | ≥ 100 µM |
| Cc1ccsc1-c1n[nH]c2ncc(-c3ccccc3F)nc12 | ≥ 100 µM |
| O=C1NCc2ccccc2CC12CCN(Cc1ccc3ccccc3n1)CC2 | ≥ 100 µM |
| Cn1ccc(Nc2nccc3c(=O)cc(-c4cn[nH]c4)oc23)n1 | ≥ 100 µM |
| COc1ccccc1N1CCN([S+](=O)([O-])c2ccc(C)cc2OC)CC1 | ≥ 100 µM |
| COc1ccccc1N1CCN(C(=O)c2ccc3ccccc3n2)CC1 | ≥ 100 µM |
| CN(C)c1ccc(CN2CCOC[C@H]2c2nc(-c3cccc(F)c3)c[nH]2)cc1 | ≥ 100 µM |

Set 4 — cell line: HaCaT; concentration: 100 µM; time: 36 h
| SMILES | viability [%] |
| --- | --- |
| Clc1ccccc1CN1CCc2sccc2C1 | 85.5 |
| CCCN[C@H]1CCc2nc(N)sc2C1 | 90.4 |
| O=C1CCc2cc(OCCCCc3nnnn3C3CCCCC3)ccc2N1 | 77 |
| CCCC1O[C@@H]2C[C@H]3[C@@H]4CCC5=CC(=O)C=C[C@]5(C)[C@H]4[C@@H](O)C[C@]3(C)[C@]2(C(=O)CO)O1 (stereo partly shown) | 70.1 |
| Clc1ccc(C(Cn2ccnc2)OCc2ccsc2Cl)c(Cl)c1 (stereo not shown) | 4.48 |
| CCCCOc1ccc(OCCCN2CCOCC2)cc1 | 54.8 |
| COc1cc([C@H]2Oc3cc([C@H]4Oc5cc(O)cc(O)c5C(=O)[C@@H]4O)ccc3O[C@@H]2CO)ccc1O | 58.5 |
| CC(C)OC(=O)CCC/C=C\C[C@@H]1[C@@H](CC[C@@H](O)CCc2ccccc2)[C@H](O)C[C@@H]1O | 6.61 |
| CCn1c(=O)c2c(nc(/C=C/c3ccc(OC)c(OC)c3)n2C)n(CC)c1=O | 80.7 |
| CCN1CCCC1CNC(=O)c1cc(S(=O)(=O)CC)c(N)cc1OC (stereo not shown) | 95.7 |
| Nc1ccc2cc3ccc(N)cc3nc2c1 | 17.8 |
| O=C1c2c(O)ccc(O)c2C(=O)c2c(NCCNCCO)ccc(NCCNCCO)c21 | -1.31 |
| CCCC(=O)OCOC(=O)C1=C(C)NC(C)=C(C(=O)OC)C1c1cccc(Cl)c1Cl (stereo not shown) | 39.8 |
